Published values from different studies.
Every numbered part comes from another study and shows a few of its results, in no order.

Sample 1
Target: Beta-1 adrenergic receptor (ADRB1, Homo sapiens, UniProt P08588)
Chain of UniProt P08588 (whole entry, looked up): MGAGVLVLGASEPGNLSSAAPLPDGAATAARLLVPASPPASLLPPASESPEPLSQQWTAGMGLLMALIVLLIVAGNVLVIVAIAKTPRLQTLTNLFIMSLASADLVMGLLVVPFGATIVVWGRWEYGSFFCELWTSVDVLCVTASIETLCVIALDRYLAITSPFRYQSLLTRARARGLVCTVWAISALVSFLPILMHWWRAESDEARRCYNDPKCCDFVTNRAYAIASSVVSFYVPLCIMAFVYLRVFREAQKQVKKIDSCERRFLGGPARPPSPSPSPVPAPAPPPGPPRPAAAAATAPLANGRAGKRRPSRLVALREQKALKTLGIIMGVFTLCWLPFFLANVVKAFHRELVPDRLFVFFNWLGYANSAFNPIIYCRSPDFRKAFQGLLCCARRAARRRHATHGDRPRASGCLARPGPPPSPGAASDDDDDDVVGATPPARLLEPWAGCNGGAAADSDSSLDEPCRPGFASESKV
Action: antagonist
Structure (SMILES) | IC50
COc1ccccc1N1CCN(c2ncccc2CNC(=O)C2COC(=O)N2)CC1 (stereo not drawn) | ≥ 100 µM
Cc1ccc(OCC(O)CNc2nc(C)nc3c2c(C)nn3C)c(C)c1 (stereo not drawn) | ≥ 100 µM
CC1(C)C=Cc2cc3ccc(=O)oc3cc2O1 | ≥ 100 µM
CCCCCCCCN[C@H](C)[C@@H](O)c1ccc(SC(C)C)cc1 | 35.5 µM
CN1CCN(Cc2cccc(OCC(O)CN3CCOCC3)c2)CC1(C)C (stereo not drawn) | ≥ 100 µM
O=C(Nc1cnc2c(c1)COCC2)c1ccc2ccccc2n1 | ≥ 100 µM
OC(c1ccc2c(c1)CCO2)c1nc(Nc2cccc(C(F)(F)F)c2)n[nH]1 (stereo not drawn) | ≥ 100 µM
O=c1oc(Cl)c(Cl)c2ccccc12 | ≥ 100 µM

Sample 2
Target: Calcium/calmodulin-dependent protein kinase type II subunit alpha (CAMK2A, Homo sapiens, UniProt Q9UQM7)
Chain of UniProt Q9UQM7 (whole entry, looked up): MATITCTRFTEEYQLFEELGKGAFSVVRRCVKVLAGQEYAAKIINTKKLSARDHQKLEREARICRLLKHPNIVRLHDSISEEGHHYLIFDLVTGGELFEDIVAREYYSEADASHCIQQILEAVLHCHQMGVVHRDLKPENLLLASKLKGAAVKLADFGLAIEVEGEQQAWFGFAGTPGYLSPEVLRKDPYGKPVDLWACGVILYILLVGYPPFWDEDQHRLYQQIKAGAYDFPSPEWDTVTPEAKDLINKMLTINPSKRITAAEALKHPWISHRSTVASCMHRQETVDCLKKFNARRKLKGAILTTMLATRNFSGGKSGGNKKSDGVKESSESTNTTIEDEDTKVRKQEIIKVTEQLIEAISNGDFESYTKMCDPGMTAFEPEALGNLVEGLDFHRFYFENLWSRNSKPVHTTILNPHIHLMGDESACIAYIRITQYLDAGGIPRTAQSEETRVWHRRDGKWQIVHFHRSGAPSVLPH
Observed: enzyme activity
Action: inhibitor
Tested at: 10 µM
SMILES | inhibition
C[C@H]1[C@H](C)CC[C@]2(C)CC[C@]3(C)C(=CC[C@@H]4[C@@]5(C)CC[C@@H](O)[C@](C)(C(=O)O)[C@@H]5CC[C@]43C)[C@H]12 | -16%
CCCCCCC(=O)OCC(COC(=O)CCCCCC)OC(=O)CCCCCC | 0%
CN(CCO)CC(O)Cn1cnc2c1c(=O)n(C)c(=O)n2C (stereo not drawn) | -4%
O=C(O)CCCC(O)C(=O)O (stereo not drawn) | 1%
COc1c(O[C@@H]2O[C@H](CO[C@@H]3OC[C@@H](O)[C@H](O)[C@H]3O)[C@@H](O)[C@H](O)[C@H]2O)cc2occ(-c3ccc(O)cc3)c(=O)c2c1O | -6%
CC=C1[C@@H]2C=C(C)C[C@@]1(N)c1ccc(=O)[nH]c1C2 (racemic) | -5%
Cc1ccc(Cl)c(Nc2ccccc2C(=O)O)c1Cl | -5%
C=C(C)C(=O)O[C@H]1CC2=C[C@@H](C/C(C)=C/[C@H]3OC(=O)C(=C)[C@H]13)OC2=O | -21%

Mixed results
Compound | target or system | test | test system | conditions | quantity | result
Cn1cncc1[C@](O)(COc1ccc(C#N)cc1-c1ccc(OC(F)(F)F)cc1)c1ccc(C#N)cc1 | Tyrosine-protein kinase ABL1, non-phosphorylated (ABL1, Homo sapiens, UniProt P00519, H396P) | cell-free assay, competition with immobilised ligand | – | 1 µM | remaining binding | 91%
COc1ccc(-c2c(Nc3ccccn3)[nH]c3c(C4=CCCCC4)c(-c4ccccc4)nn3c2=O)cc1 | – | LC-MS/MS non-compartmental | human, plasma | oral, 200 mg twice daily, cycle 1 | Tmax | 0 h

A few entries again (sample 2):
SMILES | inhibition
CN(CCO)CC(O)Cn1cnc2c1c(=O)n(C)c(=O)n2C (stereo not drawn) | -4%
O=C(O)CCCC(O)C(=O)O (stereo not drawn) | 1%
COc1c(O[C@@H]2O[C@H](CO[C@@H]3OC[C@@H](O)[C@H](O)[C@H]3O)[C@@H](O)[C@H](O)[C@H]2O)cc2occ(-c3ccc(O)cc3)c(=O)c2c1O | -6%
